Published values of several laboratories.
Every numbered part comes from another study and shows a few of its results, in no order.

Block 1 — technique: RNA Bind-n-Seq; form: RNA; medium: in vitro; tested at: 365 nM; relative to: no-protein control; reading: higher = stronger binding
Target: RNA binding protein fox-1 homolog 2, RRM domain, GST-SBP tag (RBFOX2, Homo sapiens, UniProt O43251-10, residues 100-194)
Notes: natural RNA segment, single round, ends assumed
Residues (chain): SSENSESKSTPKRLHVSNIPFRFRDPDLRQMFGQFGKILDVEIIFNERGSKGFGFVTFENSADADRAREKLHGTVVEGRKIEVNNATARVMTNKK
Sequence | RBNS enrichment (R)
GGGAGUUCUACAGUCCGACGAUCAAGAAAAGGUUUUUCACACACUCCUUGCUUUCUGCUAAGAUAAGAAAGGCGUCACUCUGCCAGAGUGUGACUUUUUACAGAUUAAAUAAAGCUGUAUAUGUCUCAUUGUUUGGAAUUCUCGGGUGCCAA | 0.242
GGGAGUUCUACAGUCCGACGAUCGUGGAGAAAGCACUUGCUUUCAUCCUCUGGCAUCGGAAACUCCCCUAUGCACUUGAAGAUGGUUUAAAAGAUUAAAGAAACGAUUAAGAGAAAAGGUUGGAAGCUUUAUAUGGAAUUCUCGGGUGCCAA | 0.713
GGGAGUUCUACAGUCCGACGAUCAAAAAAGUAAAAUAAGUUAUAGUGGUCAGGGAAUCUCUUGACGAAAGCUAACUCUUAUUUUUCAGGGGGCACAUGUUUUGUUUUGUUAUGUUUUGUUGUACAAUGAAGGAUGGAAUUCUCGGGUGCCAA | 0.443
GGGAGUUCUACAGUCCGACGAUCUUAUUUUUCAUUGUGUUUUGUGACCUCAGCAGGGUGGGGGUCUUCCUCCUUACUCUAAGCUAAAUCUAGGUGAGGUUUCCCCUUAGGGAGCCCAGCUAUUUACAAAGUACUGGAAUUCUCGGGUGCCAA | 0.373
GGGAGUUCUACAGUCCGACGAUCCUCUGUGUGUGUCGUCCCUCAUCCCGUGUAAAUAUCACCAUCCUUGUGACACUGGCACUAAGCAAUGUGUGCUCUGCCCAGCACACCUGGACAUGUUCUCUCGGCUGGCUUGGAAUUCUCGGGUGCCAA | 0.548
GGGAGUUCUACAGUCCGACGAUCAAUUUUAGAGGACAGAUAUUUGACCAAAAGACUAUCAACUUUAAACAUUUAUUUUAUGGUUUCUUGUCAAGAUUUAAUCUAAAUAUUUUAAAAGCAAUUCCAAGGAAGCAUGGAAUUCUCGGGUGCCAA | 1.49
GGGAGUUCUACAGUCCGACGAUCUUUCCUAUCUCUAAAAUAUCUACUUCUGUGAAGAAGACUGGCUUACUCAGGCCAGGGCCCUCCUGACGACGGUUUCCUGACUAGAAGAAAGGGACGUGGGUUUGAAGGCAUGGAAUUCUCGGGUGCCAA | 0.315
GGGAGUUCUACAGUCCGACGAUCAGUCAUCUUUGUCUCCUUCCCUGGGAUGCAGAUACCGAAGUUGCUUUUCCAACUUUCGCCUCCGCUAGGAGAUCAGAAAGAAUUCUUGUGACUUCCUGGGCAGCCAUUGAUGGAAUUCUCGGGUGCCAA | 0.285

Block 2 — technique: protein-binding microarray; form: hairpin DNA; medium: in vitro; tested at: not given; relative to: not given; reading: higher = stronger binding
Target: Runt-related transcription factor 1, full length (RUNX1, Homo sapiens, UniProt Q01196-8, residues 1-480)
Notes: whole hairpin DNA, median over replicate spots
Sequence | median fluorescence
GAGGCCTGCCGCGGTTGGCCTCCTGGCCAACCGCGGCAGGCCTCACACTC (5mC at 9) | 2620 a.u.
GAGGCCTATCGCGGTTGGCCTCCTGGCCAACCGCGATAGGCCTCACACTC | 2400 a.u.
GAGGCCCATCCGCAACAGCCTCCTGGCTGTTGCGGATGGGCCTCACACTC | 1990 a.u.
GAGGCCCAACCGCAAGAGCCTCCTGGCTCTTGCGGTTGGGCCTCACACTC (5mC at 29) | 7270 a.u.
GAGGCCCAACCGTAACAGCCTCCTGGCTGTTACGGTTGGGCCTCACACTC | 1810 a.u.
CTCAGTTCGGTGGGCTGGACTCCTGTCCAGCCCACCGAACTGAGACACTC | 1960 a.u.
GAGGCCCACCCGCAACAGCCTCCTGGCTGTTGCGGGTGGGCCTCACACTC (5mC at 9) | 2330 a.u.
CTCAGTTCTGTGGCCTGGACTCCTGTCCAGGCCACAGAACTGAGACACTC | 1910 a.u.
GAGGCCTGTTGTCGTTGGCCTCCTGGCCAACGACAACAGGCCTCACACTC (5mC at 13) | 1710 a.u.
CTCAGTTCGGTGGGCTGGACTCCTGTCCAGCCCACCGAACTGAGACACTC (5mC at 8 36) | 1960 a.u.
GAGGCCTGTTGCGCGTGGCCTCCTGGCCACGCGCAACAGGCCTCACACTC | 1870 a.u.
GAGGCCTGTTGTGGTCGGCCTCCTGGCCGACCACAACAGGCCTCACACTC | 3030 a.u.
GGGGCCTGTCGCGGTTGGCCTCCTGGCCAACCGCGACAGGCCCCACACTC (5mC at 43) | 3110 a.u.
GAGGCCTGCGGTGGTTGGCCTCCTGGCCAACCACCGCAGGCCTCACACTC | 2730 a.u.
GAGGCCTGTTGTGGTCGGCCTCCTGGCCGACCACAACAGGCCTCACACTC (5mC at 16) | 2610 a.u.
GAGGCCCACCCGCAACAGCCTCCTGGCTGTTGCGGGTGGGCCTCACACTC | 2890 a.u.
GAGGCCTGTCGCGGTTGGCCTCCTGGCCAACCGCGACAGGCCTCACACTC (5mC at 6) | 2630 a.u.

Block 3 — technique: RNA Bind-n-Seq; form: RNA; medium: in vitro; tested at: 100 nM; relative to: input RNA pool; reading: higher = stronger binding
Target: RING finger protein unkempt homolog, zinc fingers 1-6, SBP tag (UNK, Homo sapiens, UniProt Q9C0B0, residues 30-357)
Sequence of UniProt Q9C0B0 (30-357, looked up): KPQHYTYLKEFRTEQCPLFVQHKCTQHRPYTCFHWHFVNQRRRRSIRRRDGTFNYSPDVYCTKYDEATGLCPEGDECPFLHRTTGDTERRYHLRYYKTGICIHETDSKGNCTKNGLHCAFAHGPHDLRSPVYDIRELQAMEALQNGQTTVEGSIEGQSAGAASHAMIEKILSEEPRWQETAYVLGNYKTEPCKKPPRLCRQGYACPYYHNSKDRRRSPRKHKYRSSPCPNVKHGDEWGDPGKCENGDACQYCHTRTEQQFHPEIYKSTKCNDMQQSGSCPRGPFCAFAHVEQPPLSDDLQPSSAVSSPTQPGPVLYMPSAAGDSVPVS
Notes: RNA with constant flanks, vertebrate orthologous sites, ends assumed
Sequence | bound/input enrichment [ratio]
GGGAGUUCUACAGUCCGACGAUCCAUGCACAUGCCGCUGUCACCAAGAGCAAACAUGGUCUCCAAACUCUCCAACUAGCCUUUUUAGUAUUCUCCCUCUCUUUCCCUUCUGUUGUUCCUCCAAUGCUUUAAAUGAUUAGAAGUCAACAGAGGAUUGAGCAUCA | 1.99
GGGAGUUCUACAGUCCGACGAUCUCAUCUCUCAUUUUAUAUGUCCAAAUGGCUUUGAAUUUUUAAACAAUUGAUAGUUUUAAUUAGCUCUGCCCUCAUGAAGUAUACUUAUACUUCACCACAGAUAUAUGUCUGAUUACUUCACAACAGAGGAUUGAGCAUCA | 0.789
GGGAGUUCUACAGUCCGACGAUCGCUCUAGUUCUUAACAACCGACCCUCCUAAAAGAUUUAGAAAAAAGUUUACAACAUAAUCUAGUUUACAGAAAAAUCUUGUGCUAGGAUACUUUUUAAAAAGUAUUUUGAAUAUCAUUAACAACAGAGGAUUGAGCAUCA | 0.707
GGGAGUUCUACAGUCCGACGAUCCUUAAUUAGAGGGUAGUAUAUGUUUCAUAAAGAAGAGUCUUUAUAAUUUUGUUGGUCAUAUAGUAUUUUGGAAUUUGUAUAAUGAGGAUGUUUAGAAGCCAUAUCUAUGGCUUUUUUUAACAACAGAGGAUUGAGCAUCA | 0.48
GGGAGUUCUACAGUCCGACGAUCGCAAAUCCAAUCACUGUGAUAUUUAAAAUAUGCACAGUCUUAAUUCCUUCUCAAUGAUCCUAGUAUUUUUCUAGCUGUAUCUUUAUAUCUCAUACUGUUAUUUAUCAGUUUUGUUCCCCUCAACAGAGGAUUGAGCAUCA | 0.854
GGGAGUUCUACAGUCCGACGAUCUUGUUUUUAUUUUUUUUAACUUCCUUAAUUCUUCCUUACUUCCUUUUAUUUUUGUUUUUGGUAGUUAUUGUUACCAUGCCAUUUUACGUCUCCUUCACUGAAGGGCUAGAGUUUUAACUUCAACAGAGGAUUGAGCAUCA | 2.81

Block 4 — technique: competition protein-binding microarray; form: double-stranded DNA, one strand shown; medium: in vitro; tested at: 2 µM; added: Cbf1 competitor, 0.05 µM; reading: higher = stronger binding
Target: Phosphate system positive regulatory protein PHO4, full length, GST-tagged (PHO4, Saccharomyces cerevisiae, UniProt P07270, residues 1-312)
Notes: whole 60-bp probe, lowest competitor level
Construct (chain): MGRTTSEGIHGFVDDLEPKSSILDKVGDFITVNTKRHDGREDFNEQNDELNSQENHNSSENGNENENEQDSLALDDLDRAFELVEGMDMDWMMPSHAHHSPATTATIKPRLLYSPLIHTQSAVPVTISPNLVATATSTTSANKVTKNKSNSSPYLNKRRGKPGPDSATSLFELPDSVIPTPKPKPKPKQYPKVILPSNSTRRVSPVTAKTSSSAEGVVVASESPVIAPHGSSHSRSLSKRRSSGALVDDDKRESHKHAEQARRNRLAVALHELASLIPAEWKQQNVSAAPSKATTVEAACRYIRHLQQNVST
Sequence | fluorescence intensity [a.u.]
AAATTACTAAGTTGCAAGGTGGGTGACGCCGTATGAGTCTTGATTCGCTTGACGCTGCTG | 4160
AGGAATGTTAATTCGCTCGTGCGGACTAATTTTTCCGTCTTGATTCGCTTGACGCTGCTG | 9540
CAGTTTTTAAAATATCACAATTCAGGCGGGTTGCCAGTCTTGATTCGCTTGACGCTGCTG | 3370
AAACAACTTTAGTGCCGCGTGATGGCGGGGGTTGAAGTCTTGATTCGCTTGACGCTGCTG | 7320
AACTCACCCCATTTGCTCGTGGGTAGTGACGACCGCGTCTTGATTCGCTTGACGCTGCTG | 8300
AAAACAACATAAAAATCCGTGATGGTTTAATGGTCAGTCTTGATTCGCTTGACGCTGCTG | 3710
GGAGCCAACAGCTCAAACGTGCCAGGGACTGGTTACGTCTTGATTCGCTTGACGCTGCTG | 11400
GTATAGTATCCACTTCGTGTGACAGTACTATAATCGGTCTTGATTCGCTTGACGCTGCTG | 6170
CTTCTGTAAATTTGATTTGTGGGTGGACGCGCCCCGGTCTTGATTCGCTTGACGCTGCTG | 4250
CTAACGAAGGTTTGTCACAACACTTACAAGCCAAGTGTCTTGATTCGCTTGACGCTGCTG | 3920
CCCGTCCATTGAGTGCCCGTGCCGAATCAAGCTAAAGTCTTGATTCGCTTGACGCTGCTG | 9350
CATACCCAACCTTGGACCGTGGGTGAAGATATTTGTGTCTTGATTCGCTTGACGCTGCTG | 9220
TTTTTTCTGTTAGGGCACATGACAATTGCCTATTATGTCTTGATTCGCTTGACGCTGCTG | 9300
TGTTAGTCAATTGCTCGCGTGGGACGACATTCTCTTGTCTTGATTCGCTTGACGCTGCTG | 8850
CATACCCAACCTTGGGGTGTGGGTGAAGATATTTGTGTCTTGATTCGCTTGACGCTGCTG | 6830
GAGCAGTTACGCAACTCCGTGATGGCGCGCCAAGGGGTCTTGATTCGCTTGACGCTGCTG | 3040
CTAACGAAGGTTTTTCACGTGCGGTACAAGCCAAGTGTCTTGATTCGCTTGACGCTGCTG | 13600
TGAGAAGAGAGGCCACACATGCTGTTGGGGTTCATGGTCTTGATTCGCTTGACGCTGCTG | 8750
GGGTTAAAACTTCACCACGTTTGTAGCGGAGCAATGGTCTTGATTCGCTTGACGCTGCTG | 11800

A few entries again (block 1):
Sequence | RBNS enrichment (R)
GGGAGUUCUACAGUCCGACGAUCAAGAAAAGGUUUUUCACACACUCCUUGCUUUCUGCUAAGAUAAGAAAGGCGUCACUCUGCCAGAGUGUGACUUUUUACAGAUUAAAUAAAGCUGUAUAUGUCUCAUUGUUUGGAAUUCUCGGGUGCCAA | 0.242
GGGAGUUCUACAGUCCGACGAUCGUGGAGAAAGCACUUGCUUUCAUCCUCUGGCAUCGGAAACUCCCCUAUGCACUUGAAGAUGGUUUAAAAGAUUAAAGAAACGAUUAAGAGAAAAGGUUGGAAGCUUUAUAUGGAAUUCUCGGGUGCCAA | 0.713
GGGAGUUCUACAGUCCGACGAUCAAAAAAGUAAAAUAAGUUAUAGUGGUCAGGGAAUCUCUUGACGAAAGCUAACUCUUAUUUUUCAGGGGGCACAUGUUUUGUUUUGUUAUGUUUUGUUGUACAAUGAAGGAUGGAAUUCUCGGGUGCCAA | 0.443
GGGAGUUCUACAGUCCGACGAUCUUAUUUUUCAUUGUGUUUUGUGACCUCAGCAGGGUGGGGGUCUUCCUCCUUACUCUAAGCUAAAUCUAGGUGAGGUUUCCCCUUAGGGAGCCCAGCUAUUUACAAAGUACUGGAAUUCUCGGGUGCCAA | 0.373
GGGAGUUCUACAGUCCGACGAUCCUCUGUGUGUGUCGUCCCUCAUCCCGUGUAAAUAUCACCAUCCUUGUGACACUGGCACUAAGCAAUGUGUGCUCUGCCCAGCACACCUGGACAUGUUCUCUCGGCUGGCUUGGAAUUCUCGGGUGCCAA | 0.548
